Assay results of several laboratories.
Each line is one published result; not all experiments were run side by side. ± marks the error that the study gave.
cyp121: Mycocyclosin synthase (cyp121, Mycobacterium tuberculosis, UniProt P9WPP7)
OPRM1 with beta-arrestin-2: Mu-type opioid receptor, with beta-arrestin-2 (OPRM1, Homo sapiens, UniProt P35372)
lasR: Transcriptional activator protein LasR (lasR, Pseudomonas aeruginosa, UniProt P25084)

Protein sequences, listed by entry. Tags and fused reporters are not part of them.
UniProt P9WPP7, whole entry: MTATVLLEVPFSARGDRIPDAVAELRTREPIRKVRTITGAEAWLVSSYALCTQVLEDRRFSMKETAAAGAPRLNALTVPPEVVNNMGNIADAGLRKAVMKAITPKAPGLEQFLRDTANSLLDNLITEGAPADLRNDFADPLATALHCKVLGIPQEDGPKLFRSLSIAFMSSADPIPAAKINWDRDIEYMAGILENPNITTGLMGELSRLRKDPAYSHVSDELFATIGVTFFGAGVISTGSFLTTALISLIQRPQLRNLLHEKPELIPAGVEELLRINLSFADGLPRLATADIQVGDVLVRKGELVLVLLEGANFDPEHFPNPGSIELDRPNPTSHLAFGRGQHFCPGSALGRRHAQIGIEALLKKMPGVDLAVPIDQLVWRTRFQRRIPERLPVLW
UniProt P35372, whole entry, looked up: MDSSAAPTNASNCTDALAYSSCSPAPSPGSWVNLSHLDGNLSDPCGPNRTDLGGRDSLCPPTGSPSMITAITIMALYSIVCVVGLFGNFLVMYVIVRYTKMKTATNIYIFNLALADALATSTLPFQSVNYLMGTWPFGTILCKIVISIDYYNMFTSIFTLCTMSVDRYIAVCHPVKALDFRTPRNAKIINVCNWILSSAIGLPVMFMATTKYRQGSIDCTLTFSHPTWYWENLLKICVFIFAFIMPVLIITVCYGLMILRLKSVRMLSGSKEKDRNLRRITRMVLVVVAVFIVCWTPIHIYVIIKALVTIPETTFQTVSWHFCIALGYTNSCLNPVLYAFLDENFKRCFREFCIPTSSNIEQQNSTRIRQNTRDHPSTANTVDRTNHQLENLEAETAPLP
UniProt P25084, whole entry: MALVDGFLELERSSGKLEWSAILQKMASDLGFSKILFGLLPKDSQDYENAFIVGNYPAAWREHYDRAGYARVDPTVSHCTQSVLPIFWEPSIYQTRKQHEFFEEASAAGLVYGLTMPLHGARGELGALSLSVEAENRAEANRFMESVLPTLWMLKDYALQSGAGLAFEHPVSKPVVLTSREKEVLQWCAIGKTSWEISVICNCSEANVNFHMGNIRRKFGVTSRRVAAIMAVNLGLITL
UniProt P21554, whole entry: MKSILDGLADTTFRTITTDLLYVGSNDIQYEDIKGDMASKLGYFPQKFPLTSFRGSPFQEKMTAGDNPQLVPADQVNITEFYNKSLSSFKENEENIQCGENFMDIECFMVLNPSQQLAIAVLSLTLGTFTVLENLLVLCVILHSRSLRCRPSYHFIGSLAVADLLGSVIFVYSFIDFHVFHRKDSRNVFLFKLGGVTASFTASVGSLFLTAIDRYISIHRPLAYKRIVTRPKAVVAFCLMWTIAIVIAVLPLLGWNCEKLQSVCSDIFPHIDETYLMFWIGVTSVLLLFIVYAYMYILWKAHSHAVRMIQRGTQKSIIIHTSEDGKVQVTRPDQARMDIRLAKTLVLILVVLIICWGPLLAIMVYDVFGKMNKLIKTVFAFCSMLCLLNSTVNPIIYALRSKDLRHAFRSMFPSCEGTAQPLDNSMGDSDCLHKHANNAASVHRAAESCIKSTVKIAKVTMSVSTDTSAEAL
UniProt P32300, whole entry: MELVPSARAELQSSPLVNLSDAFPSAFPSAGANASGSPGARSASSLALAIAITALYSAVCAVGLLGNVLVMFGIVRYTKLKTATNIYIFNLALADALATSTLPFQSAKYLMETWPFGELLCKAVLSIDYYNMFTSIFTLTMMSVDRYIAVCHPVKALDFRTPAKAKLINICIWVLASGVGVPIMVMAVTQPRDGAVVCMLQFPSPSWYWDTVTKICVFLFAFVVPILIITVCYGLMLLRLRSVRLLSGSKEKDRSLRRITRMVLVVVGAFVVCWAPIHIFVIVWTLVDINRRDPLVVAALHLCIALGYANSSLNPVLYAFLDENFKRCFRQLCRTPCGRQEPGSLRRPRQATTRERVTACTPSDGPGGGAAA
UniProt Q3TBT3, whole entry: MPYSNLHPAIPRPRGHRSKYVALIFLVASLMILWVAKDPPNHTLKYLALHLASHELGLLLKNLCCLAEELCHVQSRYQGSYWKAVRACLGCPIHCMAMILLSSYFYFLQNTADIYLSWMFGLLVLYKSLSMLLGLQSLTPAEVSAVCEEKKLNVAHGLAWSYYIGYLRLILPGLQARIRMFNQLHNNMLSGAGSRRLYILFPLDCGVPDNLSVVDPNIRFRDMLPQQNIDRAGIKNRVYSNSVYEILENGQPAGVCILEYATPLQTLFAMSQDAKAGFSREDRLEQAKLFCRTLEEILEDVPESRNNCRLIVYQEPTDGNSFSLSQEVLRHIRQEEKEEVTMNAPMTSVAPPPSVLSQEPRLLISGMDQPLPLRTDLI
UniProt P33535, whole entry: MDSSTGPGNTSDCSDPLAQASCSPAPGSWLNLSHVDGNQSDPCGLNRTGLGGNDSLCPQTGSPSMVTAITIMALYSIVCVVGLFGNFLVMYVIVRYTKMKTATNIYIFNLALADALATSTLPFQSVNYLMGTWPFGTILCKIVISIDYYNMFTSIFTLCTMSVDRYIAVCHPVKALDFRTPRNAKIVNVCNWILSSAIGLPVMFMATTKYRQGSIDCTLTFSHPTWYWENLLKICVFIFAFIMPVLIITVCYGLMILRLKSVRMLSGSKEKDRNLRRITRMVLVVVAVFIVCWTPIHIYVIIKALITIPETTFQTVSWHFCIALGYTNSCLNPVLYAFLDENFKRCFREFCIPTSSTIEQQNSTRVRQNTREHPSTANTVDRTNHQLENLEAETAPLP
UniProt P34972, whole entry: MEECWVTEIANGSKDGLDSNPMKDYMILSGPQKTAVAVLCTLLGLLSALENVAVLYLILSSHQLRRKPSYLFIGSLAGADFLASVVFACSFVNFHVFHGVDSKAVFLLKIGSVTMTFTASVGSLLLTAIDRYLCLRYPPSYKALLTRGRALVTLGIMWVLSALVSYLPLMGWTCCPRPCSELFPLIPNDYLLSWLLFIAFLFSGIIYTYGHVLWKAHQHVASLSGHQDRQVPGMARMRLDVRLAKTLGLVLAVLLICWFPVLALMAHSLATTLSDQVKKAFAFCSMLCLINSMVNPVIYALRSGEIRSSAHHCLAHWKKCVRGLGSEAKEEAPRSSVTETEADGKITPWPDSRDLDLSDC
UniProt P33534, whole entry: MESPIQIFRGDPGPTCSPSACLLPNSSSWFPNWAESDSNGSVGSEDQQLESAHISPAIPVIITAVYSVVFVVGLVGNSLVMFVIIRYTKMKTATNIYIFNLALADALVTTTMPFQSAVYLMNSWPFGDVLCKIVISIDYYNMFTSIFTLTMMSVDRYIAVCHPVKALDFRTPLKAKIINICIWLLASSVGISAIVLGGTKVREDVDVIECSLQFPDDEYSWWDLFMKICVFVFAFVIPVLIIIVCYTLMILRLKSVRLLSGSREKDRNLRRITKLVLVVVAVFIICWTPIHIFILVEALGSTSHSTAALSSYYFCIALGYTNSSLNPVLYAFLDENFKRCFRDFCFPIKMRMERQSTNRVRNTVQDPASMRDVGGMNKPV

CC1(Cc2ccccc2)COc2ccc(C(=O)Nc3ccccc3I)cc21 (racemic) — EC50 (Cannabinoid receptor 1 (CNR1, Homo sapiens, UniProt P21554); CHO cell membranes): > 10000 nM
O=C(N[C@@H]1CC[C@@]2(O)[C@H]3Cc4ccc(O)c5c4[C@@]2(CCN3CC2CC2)[C@H]1O5)c1ccnc(Br)c1 — EC50 (Delta-type opioid receptor (Oprd1, Mus musculus, UniProt P32300); agonist; CHO cell membranes): 15.8 ± 2.96 nM
CCn1nc(C)cc1C(=O)Nc1nc2cc(C(N)=O)cc(OC)c2n1C/C=C/Cn1c(NC(=O)c2cc(C)nn2CC)nc2cc(C(N)=O)cc(OCCCN3CCN(C(=O)CCCCN=[N+]=[N-])CC3)c21 — EC50 (Stimulator of interferon genes protein (Sting1, Mus musculus, UniProt Q3TBT3); IFN-β secretion, agonist, ELISA; mouse BMDCs; carrier-free cysteine-blocked click): 75 ± 14 nM
c1ccc(-c2ccc(Cn3ccnc3)o2)cc1 — Kd (cyp121; racemate): 34000 nM
COCOc1ccc(C(=O)OC2=C[C@@H](C(=O)OC)[C@]3(C)CC[C@H]4C(=O)O[C@H](c5ccoc5)C[C@]4(C)[C@H]3C2=O)cc1Br — EC50 (OPRM1 with beta-arrestin-2; β-arrestin recruitment, agonist): > 25000 nM
COc1ccccc1C(=O)Oc1c(Br)cc(Br)cc1CNC(=O)c1ccccc1[N+](=O)[O-] — EC50 (lasR; reporter gene, agonist; Escherichia coli JLD271 lasI-lacZ reporter): 1.1 nM
CCC(c1ccc(-c2ccc(O)cc2)c2cccnc12)n1ccnc1 (stereo not shown) — Kd (cyp121; binding): 1700 ± 370 nM
COCOc1ccc(C(=O)OC2=C[C@@H](C(=O)OC)[C@]3(C)CC[C@H]4C(=O)O[C@H](c5ccoc5)C[C@]4(C)[C@H]3C2=O)cc1F — EC50 (OPRM1 with beta-arrestin-2; β-arrestin recruitment, agonist): 1300 ± 80 nM
N#Cc1cc(C(=O)N[C@@H]2CC[C@@]3(O)[C@H]4Cc5ccc(O)c6c5[C@@]3(CCN4CC3CC3)[C@H]2O6)ccn1 — EC50 (Mu-type opioid receptor (Oprm1, Rattus norvegicus, UniProt P33535); agonist; CHO cell membranes): 1.82 ± 0.28 nM
CC(=O)Oc1c(Br)cc(Br)cc1CNC(=O)c1ccccc1[N+](=O)[O-] — EC50 (lasR; reporter gene, agonist; Escherichia coli JLD271 lasI-lacZ reporter): 20.5 nM
CC1(Cc2ccccc2)COc2cc(C(=O)Nc3ccccc3I)ccc21 (racemic) — EC50 (Cannabinoid receptor 2 (CNR2, Homo sapiens, UniProt P34972); CHO cell membranes): > 10000 nM
COc1ccc2c3c1O[C@H]1[C@H](NC(=O)c4cccc(I)c4)C=C[C@H]4[C@@H](C2)N(CC2CC2)CC[C@@]341 — EC50 (Kappa-type opioid receptor (Oprk1, Mus musculus, UniProt P33534); G protein activation, agonist; transfected cell membranes): 1.9 ± 0.09 nM
CCCCCCCC(=O)Oc1c(Br)cc(Br)cc1CNC(=O)c1ccccc1[N+](=O)[O-] — EC50 (lasR; reporter gene, agonist; Escherichia coli JLD271 lasI-lacZ reporter): 12.2 nM

For quick reference, copied from above:
CC1(Cc2ccccc2)COc2cc(C(=O)Nc3ccccc3I)ccc21 (racemic) — EC50 (Cannabinoid receptor 2 (CNR2, Homo sapiens, UniProt P34972); CHO cell membranes): > 10000 nM
c1ccc(-c2ccc(Cn3ccnc3)o2)cc1 — Kd (cyp121; racemate): 34000 nM
